Experimental data pooled from the literature.
A part holds a random share of what one study measured. Positions count from the first letter of the parent shown.

Set 1
Target: Ras GTPase-activating protein-binding protein 1, RRM domain (G3BP1, Homo sapiens, UniProt Q13283)
Chain of UniProt Q13283 (whole entry, looked up): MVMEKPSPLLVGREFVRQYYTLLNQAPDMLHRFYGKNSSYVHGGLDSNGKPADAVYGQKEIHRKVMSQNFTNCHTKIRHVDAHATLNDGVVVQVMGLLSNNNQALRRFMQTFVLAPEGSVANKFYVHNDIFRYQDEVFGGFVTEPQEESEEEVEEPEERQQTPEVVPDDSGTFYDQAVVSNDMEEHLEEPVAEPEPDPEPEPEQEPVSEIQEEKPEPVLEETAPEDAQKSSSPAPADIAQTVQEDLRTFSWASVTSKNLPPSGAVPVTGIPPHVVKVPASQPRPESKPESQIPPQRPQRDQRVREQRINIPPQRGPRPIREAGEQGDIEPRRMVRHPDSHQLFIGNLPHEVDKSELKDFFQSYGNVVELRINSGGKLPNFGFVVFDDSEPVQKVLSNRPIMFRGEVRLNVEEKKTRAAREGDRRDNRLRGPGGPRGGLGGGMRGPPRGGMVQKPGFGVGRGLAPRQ
Technique: RNA Bind-n-Seq
Form: RNA
Medium: in vitro
Tested at: 1 µM
Setting: whole 134-nt RNA, ends assumed
With: 150 mM KCl
Relative to: input library
Direction: higher = stronger binding
Measurement: log2 enrichment
GGGAGUUCUACAGUCCGACGAUCACAGAGGGUUUGGUGGACGUUAUUCUCUAUCAUCAACCCGAUGACAAAAAGAAGAAUCGGGGGUUCUGCUUCCUUGAAUAUGAGGAUCACUGGAAUUCUCGGGUGUCAAGG: -0.293
GGGAGUUCUACAGUCCGACGAUCUGGGAGGUGGAUUUUGUUUAUUUUUUUAGCUCAUUUCCAGGGGUGGGAAUUUUUUUUUAAUAUGUGUCAUGAAUAAAGUUGUGUUUGAAAUGGAAUUCUCGGGUGUCAAGG: 1.99
GGGAGUUCUACAGUCCGACGAUCCCUGUGCUACACAUCGUAUGUACCGAAUCGGGGUUUGGGGUUUUUUUGGGGAAAAAGGGGAAAGUAUUAUGUUACGCCGUUCGGAUCUGCUGGAAUUCUCGGGUGUCAAGG: 1.03
GGGAGUUCUACAGUCCGACGAUCUAACUUUAGAGGAGGAUCUGAUGGAUAUGGCAGUGGACGUGGAUUUGGGGAUGGCUAUAAUGGGUAUGGAAGAGGACCUGGAGGUGGCAAUGGAAUUCUCGGGUGUCAAGG: -0.387

Set 2
Target: CCND3, cyclin fold, Cln2 fusion (human)
Technique: yeast growth competition, sequencing
Medium: yeast
Setting: weak parent motif
Relative to: not given
Direction: higher = stronger binding
Measurement: normalised enrichment score
Starting sequence: SCAPER docking peptide (human); SNARRSLNFGGST; partner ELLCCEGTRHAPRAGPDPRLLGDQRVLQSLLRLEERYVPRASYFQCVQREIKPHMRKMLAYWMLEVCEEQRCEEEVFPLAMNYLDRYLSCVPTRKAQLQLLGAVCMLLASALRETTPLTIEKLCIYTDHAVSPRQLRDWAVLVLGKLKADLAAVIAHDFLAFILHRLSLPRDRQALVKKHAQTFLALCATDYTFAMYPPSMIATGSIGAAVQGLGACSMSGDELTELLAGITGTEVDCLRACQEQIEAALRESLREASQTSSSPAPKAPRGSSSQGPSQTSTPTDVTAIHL
S12R: -0.00518
S1W: 0.213
S1V: 0.163
F9I: 0.119
N8G: 0.0843
G11S: 0.158

Set 3
Target: RNA binding protein fox-1 homolog 2, RRM domain, GST-SBP tag (RBFOX2, Homo sapiens, UniProt O43251-10, residues 100-194)
Technique: RNA Bind-n-Seq
Form: RNA
Medium: in vitro
Tested at: 365 nM
Setting: natural RNA segment, single round, ends assumed
Relative to: no-protein control
Direction: higher = stronger binding
Measurement: RBNS enrichment (R)
Construct (chain): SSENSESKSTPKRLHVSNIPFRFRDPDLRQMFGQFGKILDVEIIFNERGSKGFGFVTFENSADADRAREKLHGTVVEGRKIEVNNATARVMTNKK
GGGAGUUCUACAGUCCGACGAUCGCAGCUUCCUUGACAGACAGGUUCUUGGACCCAGGCACCAACAUUCCAAGGGACACCAGCCAACCUGGGUGAGGGCCCGACUCUGUAUGUCUUCCCUUCCCUGGGGGGGGUGGAAUUCUCGGGUGCCAA: 0.338
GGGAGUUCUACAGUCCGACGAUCUGUGUGUCCACCUUUCCAAAGAAAGGAAAGACAAAAAGAGUUUCCAGAUUGGCCCAGCUGCUGAUAGGUGAUUUUUUUUGCCCAUGAAUCAUGUAUCUCUUAGAGAAGAAUGGAAUUCUCGGGUGCCAA: 0.338
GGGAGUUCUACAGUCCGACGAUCCGGGGCGGGUGCUUAGGCUUUCCUGCCCUGGUGGCCACACCAGCUGCUGUAUUUAUGUGCUUCAUAAGGCCCUGCUCUGUCUGCUAAAGCUAUGAAGAAAGAUGUGCAGAUGGAAUUCUCGGGUGCCAA: 0.234
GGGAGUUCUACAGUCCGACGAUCCUUUCCACCCCUGGAAGAUGGAAAUAAACCUGCGUGUGGGUGGAGUGUUAGGACCAACGGUUUCCUAGGAGUAUGUGGUUUUGCUGUGUGGCCUGUGUCCUGACUCGCACUGGAAUUCUCGGGUGCCAA: 2.55
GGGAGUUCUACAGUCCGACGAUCUCAUGGAGUGAUUAUGUUGAUAAUAAUGUGUAAUGCGCGUUCUUUUCACUGGUUUAUCUACAGAAAUUUCUCUGGGCCUUUUUUUCUGUGUUUGAUUCAACACUGCACUAUGGAAUUCUCGGGUGCCAA: 0.445
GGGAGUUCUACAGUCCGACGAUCGAAAGUCACCUCUGCUAUUGUAGAAAGUGGCAGAAUAUCCAAACUUAACUCUAGCUUCCAUGUCUGUCUUUAUUACCUUCAUCUUCCUACUUCCUGUCCCACCGGCAUCUUGGAAUUCUCGGGUGCCAA: 0.734
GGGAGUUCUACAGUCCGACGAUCAUAAUACAAGCCAGGGAGAGGCUUGUAUUACAUGACAGGUGUAAUUAGUCUGCUGAGCCAGCUUUACCCAAUGAAGGGCAUAUGUGUUAGAGAGAUUAGCUAAGAGUAGAUGGAAUUCUCGGGUGCCAA: 1.25
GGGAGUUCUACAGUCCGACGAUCUUCGUUCAAAAUCCAAAUAAUAACAGAUACAAAGAUAACAAAAGCUUUACAAGCUGACUUGGAAUUGUGUGCUGCUUGCUGUUAGCUAGGGGAAAGGCCCUGCCAAUGUUUGGAAUUCUCGGGUGCCAA: 0.757

Mixed results
PhoQ, residues 284 288 289 292 302 303 QWQEDG
fold induction (PhoP, residues 12 14 15 18 19 LHHVQ (Escherichia coli, UniProt P23836); Sort-seq, measured: YFP reporter; E. coli; PhoQ-PhoP variant library, with: 10 µM Mg2+; relative to: high Mg2+ state, higher = stronger signaling): 14.4

Repeated from above (set 3):
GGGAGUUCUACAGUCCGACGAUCGAAAGUCACCUCUGCUAUUGUAGAAAGUGGCAGAAUAUCCAAACUUAACUCUAGCUUCCAUGUCUGUCUUUAUUACCUUCAUCUUCCUACUUCCUGUCCCACCGGCAUCUUGGAAUUCUCGGGUGCCAA: 0.734
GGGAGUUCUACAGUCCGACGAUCAUAAUACAAGCCAGGGAGAGGCUUGUAUUACAUGACAGGUGUAAUUAGUCUGCUGAGCCAGCUUUACCCAAUGAAGGGCAUAUGUGUUAGAGAGAUUAGCUAAGAGUAGAUGGAAUUCUCGGGUGCCAA: 1.25
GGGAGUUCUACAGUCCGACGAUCUUCGUUCAAAAUCCAAAUAAUAACAGAUACAAAGAUAACAAAAGCUUUACAAGCUGACUUGGAAUUGUGUGCUGCUUGCUGUUAGCUAGGGGAAAGGCCCUGCCAAUGUUUGGAAUUCUCGGGUGCCAA: 0.757
